{"data": "Published values pooled from the literature", "note": "Numbered parts are unrelated; each lists some results of a single study."}
{"data": "Block 1", "target": "PABPC1L2, full length, GST fusion (mouse, UniProt A0ABA7IW68)", "method": "RNAcompete", "form": "RNA", "medium": "in vitro", "tested at": "20 nM", "notes": "7-mer, probes averaged, single round", "reference": "mean of 7-mers", "direction": "higher = stronger binding"}
{"Oligonucleotide": "AACUGAA", "7-mer Z-score": 0.234}
{"Oligonucleotide": "UGUAAUU", "7-mer Z-score": -0.15}
{"Oligonucleotide": "CAGGAAC", "7-mer Z-score": 0.285}
{"Oligonucleotide": "AAGGAAC", "7-mer Z-score": 0.341}
{"data": "Block 2", "target": "Histone acetyltransferase KAT6A, winged helix 1, GST fusion (KAT6A, Homo sapiens, UniProt Q92794, residues 1-85)", "method": "protein binding microarray", "form": "double-stranded DNA, one strand shown", "medium": "in vitro", "tested at": "not given", "notes": "8-mer, flanks averaged, mean of 2 arrays, mostly near background", "reference": "not given", "direction": "higher = stronger binding", "Construct (chain)": "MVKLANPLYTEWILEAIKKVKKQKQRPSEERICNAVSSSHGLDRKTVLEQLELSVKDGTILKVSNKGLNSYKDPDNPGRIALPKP"}
{"Oligonucleotide": "AATAAGGC", "E-score": -0.151}
{"Oligonucleotide": "AAGATCAG", "E-score": -0.0373}
{"Oligonucleotide": "TAACATAA", "E-score": -0.0222}
{"Oligonucleotide": "TCTGAAGA", "E-score": -0.0466}
{"Oligonucleotide": "GCCATACA", "E-score": 0.0182}
{"Oligonucleotide": "CCATACAG", "E-score": -0.15}
{"Oligonucleotide": "GACCCCCC", "E-score": 0.0388}
{"Oligonucleotide": "CACGTCTG", "E-score": -0.0563}
{"Oligonucleotide": "AATGGCTC", "E-score": -0.176}
{"Oligonucleotide": "CGTCACTC", "E-score": -0.0321}
{"data": "Block 3", "target": "Protein max, full length (MAX, Homo sapiens, UniProt P61244-2, residues 1-151)", "method": "protein-binding microarray", "form": "double-stranded DNA, one strand shown", "medium": "in vitro", "tested at": "not given", "notes": "k-mer, scored over probes, only values ≥0.25", "direction": "higher = stronger binding"}
{"Oligonucleotide": "AGGCGTGC", "E-score": 0.363}
{"Oligonucleotide": "CACCCACA", "E-score": 0.253}
{"Oligonucleotide": "ACAAGCAT", "E-score": 0.274}
{"Oligonucleotide": "CAACACAC", "E-score": 0.251}
{"Oligonucleotide": "ATGCGGCA", "E-score": 0.322}
{"data": "Other studies, line by line"}
{"Substance": "PhoQ, residues 284 288 289 292 302 303 SSLVEF", "target": "PhoP, residues 12 14 15 18 19 VQGLL (Escherichia coli, UniProt P23836)", "test": "Sort-seq, item: YFP reporter", "system": "E. coli", "conditions": "PhoQ-PhoP variant library, with: 10 µM Mg2+", "scale": "reference: high Mg2+ state, higher = stronger signaling", "endpoint": "fold induction", "result": 4.33}
{"note": "Some of these lines once more (block 1):"}
{"Oligonucleotide": "CAGGAAC", "7-mer Z-score": 0.285}
{"Oligonucleotide": "AAGGAAC", "7-mer Z-score": 0.341}
{"Oligonucleotide": "UGUAAUU", "7-mer Z-score": -0.15}
